Results gathered from unrelated publications.
Lines come from different studies, so protocols differ. ± gives the spread as reported.

SMILES	organism	test	test system	setting	IC50
O=C1CSC(=S)N1/N=C/c1cn(Cc2ccccc2)c2ccc([N+](=O)[O-])cc12	Trypanosoma equiperdum		trypomastigotes, IVM-t1		> 60 µM
CNc1cc(C(=O)Nc2ccc(C#N)cc2)ccc1OC	Enterovirus A	cytopathic effect	Vero, EV71	48 h	16.3 µM
O=C1CSC(=S)N1/N=C/c1cn(Cc2ccc(F)cc2)c2ccc([N+](=O)[O-])cc12	Trypanosoma equiperdum		trypomastigotes, IVM-t1		> 58 µM
CCCCc1ccc(NC(=O)c2ccc(OC)c(NC(=O)CC)c2)cc1	Enterovirus A	cytopathic effect	Vero, EV71	48 h	14.2 µM
C[C@H]1[C@H](C)CC[C@]2(C(=O)O)CC[C@]3(C)C(=CC[C@@H]4[C@@]5(C)CC[C@H](O)C(C)(C)[C@@H]5CC[C@]43C)[C@H]12	Eimeria tenella	parasite growth		24 h	20.1 µM
Cc1ccc2c(c1)C(=O)C(=O)N2CC#CCN1CCN(c2ccnc3cc(Cl)ccc23)CC1	Tritrichomonas foetus	growth	D1		24.5 µM
CCC(=O)Nc1cc(C(=O)Nc2ccc(C#N)cc2)ccc1OC	Enterovirus A	cytopathic effect	Vero, EV71	48 h	> 68.8 µM
N#Cc1ccccc1C1Sc2ccc(C(F)(F)F)cc2NC2=C1C(=O)c1ccccc12 (stereo not shown)	Chlamydia trachomatis	inclusion formation, immunofluorescence imaging	HEp-2, serovar L2	24 h post-infection, added 8 h post-infection	0.7 µg/mL
O=C1CSC(=S)N1/N=C/c1cn(Cc2cccc(Cl)c2)c2ccc([N+](=O)[O-])cc12	Trypanosoma equiperdum		trypomastigotes, IVM-t1		> 56 µM
CCOC(=O)c1ccc(OCCC2CCN(c3ccc(C)nn3)CC2)cc1	Enterovirus A	cytopathic effect	Vero, EV71	48 h	0.16 µM
C#CCn1cc(/C=C2\SC(=S)NC2=O)c2cc([N+](=O)[O-])ccc21	Trypanosoma equiperdum		trypomastigotes, IVM-t1		> 78 µM
O=C1C(=O)N(CC#CCN2CCN(c3ccnc4cc(Cl)ccc34)CC2)c2ccc(Cl)cc21	Tritrichomonas foetus	growth	D1		11.3 µM
CNc1cc(C(=O)CNc2ccccc2)ccc1OC	Enterovirus A	cytopathic effect	Vero, EV71	48 h	82.3 µM
CC[C@@H](C(=O)[C@@H](C)[C@@H](O)[C@H](C)CCc1ccc(C)c(O)c1C(=O)O)[C@H]1O[C@](CC)([C@H]2CC[C@](O)(CC)[C@H](C)O2)C[C@@H]1C	Eimeria tenella	viability	sporozoites	24 h	0.03 µM
O=C1NC(=S)S/C1=C\c1c[nH]c2ccc([N+](=O)[O-])cc12	Trypanosoma equiperdum		trypomastigotes, IVM-t1		38.2 ± 0.85 µM
O=C(O)c1ccc(C2Sc3ccccc3NC3=C2C(=O)c2ccccc23)cc1 (stereo not shown)	Chlamydia trachomatis	inclusion formation, immunofluorescence imaging	HEp-2, serovar L2	24 h post-infection, added 8 h post-infection	> 25 µg/mL
CNc1cc(C(=O)CNc2ccc(Cl)cc2)ccc1OC	Enterovirus A	cytopathic effect	Vero, EV71	48 h	> 24.4 µM
C#CCn1cc(C=O)c2cc([N+](=O)[O-])ccc21	Trypanosoma equiperdum		trypomastigotes, IVM-t1		> 110 µM
C[C@@H]1[C@H](O)[C@@H](C)/C=C/C=C/C=C/C=C/C=C/C=C/C=C/[C@H](O[C@@H]2O[C@H](C)[C@@H](O)[C@H](N)[C@@H]2O)C[C@@H]2O[C@](O)(C[C@@H](O)C[C@@H](O)[C@H](O)CC[C@@H](O)C[C@@H](O)CC(=O)O[C@H]1C)C[C@H](O)[C@H]2C(=O)O	Leishmania donovani	parasite growth	THP-1	intracellular, amastigote	0.08 µM

A few entries again:
SMILES	organism	test	test system	setting	IC50
CCOC(=O)c1ccc(OCCC2CCN(c3ccc(C)nn3)CC2)cc1	Enterovirus A	cytopathic effect	Vero, EV71	48 h	0.16 µM
O=C(O)c1ccc(C2Sc3ccccc3NC3=C2C(=O)c2ccccc23)cc1 (stereo not shown)	Chlamydia trachomatis	inclusion formation, immunofluorescence imaging	HEp-2, serovar L2	24 h post-infection, added 8 h post-infection	> 25 µg/mL
